Experimental data collected from several papers.
Protocols differ between the studies behind these lines. Several values in a cell are separate wells, animals, samples, runs or records. ± gives the spread as reported.

Structure (SMILES)	tested on	assay	system	conditions	scale	endpoint	value
C#Cc1cc(-c2cc(Nc3nc(N[C@@H](C)c4ccc(F)cn4)ncc3Cl)n[nH]2)ccc1C=O	High affinity nerve growth factor receptor (NTRK1, Homo sapiens, UniProt P04629, G595R)	enzyme activity, inhibitor		0.2 µM		inhibition	97.5%
O=C(Nc1ccc(C2CCCCC2)cc1)[C@H]1CC1(F)F		hepatocyte stability	cryopreserved human hepatocytes	1 µM		hepatic clearance	18 mL/min/kg
O=C(Nc1cccc2c(=O)cc(-c3nnn[nH]3)oc12)c1ccc(OCCCCc2ccccc2)cc1	Volume-regulated anion channel subunit LRRC8C, part LRRC8A IL1 chimera (LRRC8C, Homo sapiens, UniProt Q8TDW0)	ion current, inhibitor, whole-cell patch clamp	HCT LRRC8-/- cells, transfected	3 µM, low ionic strength swelling, -100 mV		inhibition	65.8% and 54.6% and 23.9% and 35.8%
CNc1ccc(-c2nc3ccc(O)cc3s2)cc1	Amyloid-beta precursor protein, amyloid-beta (APP, Homo sapiens, UniProt P05067)	binding, competition binding	amyloid-beta aggregates	3.704 nM, together with: tritiated amyloid ligand		inhibition	54.2% and 53%
CC[C@@H]1[C@H](F)C(=O)N[C@@H]1COc1nccc2cc(C(N)=O)c(OC)cc12	Phosphatidylinositol 4,5-bisphosphate 3-kinase catalytic subunit beta isoform (PIK3CB, Homo sapiens, UniProt P42338)	ATP-site probe binding, ActivX profiling	THP-1 cell lysate	0.01 mM		inhibition	-2.4%
O=C(c1ccc(OCCN2CCCCC2)cc1)c1c(-c2ccc(O)cc2)sc2cc(O)ccc12	Trypanothione synthetase (Leishmania infantum, UniProt A4I2Z3)	enzyme activity, inhibitor, phosphate release		25 µM		inhibition	41.3 ± 4.9%
Cc1nn(-c2nc3ccccc3[nH]2)c(O)c1C(c1ccccc1C(=O)O)c1c(C)nn(-c2nc3ccccc3[nH]2)c1O	Cyclic GMP-AMP synthase (CGAS, Homo sapiens, UniProt Q8N884)	enzyme activity, inhibitor, pyrophosphatase-coupled		50 µM, 1.5 h, together with: HT-DNA		inhibition	94.4%
O=C(Nc1nc2cccc(-c3ccc(CN4CCS(=O)(=O)CC4)cc3)n2n1)C1CC1		item: blood triglycerides increased	rheumatoid arthritis patients	oral, 75 mg once daily, 4 weeks, any relatedness		treatment-emergent adverse events	0%
C[C@@H]1CCO[C@H]2Cn3cc(C(=O)NCc4ccc(F)cc4F)c(=O)c(O)c3C(=O)N12	Solute carrier family 22 member 3 (SLC22A3, Homo sapiens, UniProt O75751)	transport	MDCK-II, transfected	0.1 µM, together with: MPP+ 2 µM		inhibition	4.14%
CC1(C)CC2(C)OC(=O)NC2(C)c2ccccc21 (stereo not shown)	Transcription intermediary factor 1-alpha, PHD-bromodomain (TRIM24, Homo sapiens, UniProt O15164)	binding, affinity selection mass spectrometry			relative to: other proteins in batch	fold enrichment	0.788
CN1CCN(c2cc(-c3ccncc3)c(-c3ccc4ccccc4c3)nn2)CC1	Extracellular calcium-sensing receptor (CASR, Homo sapiens, UniProt P41180)	antagonist, FLIPR		10 µM		inhibition	40.4%
O=C(NCC1CCOCC1)c1ccc(C2CCCCC2)cc1		liver microsome stability	rat liver microsomes	1 µM		hepatic clearance	48 mL/min/kg
OO	Histone acetyltransferase GCN5, with Ada2 and Ada3 (Saccharomyces cerevisiae S288c, UniProt Q03330)	enzyme activity		1 mM, together with: Gcn5-Ada2-Ada3 complex, with DTT		inhibition	22 ± 10%

A few entries again:
Structure (SMILES)	tested on	assay	system	conditions	scale	endpoint	value
OO	Histone acetyltransferase GCN5, with Ada2 and Ada3 (Saccharomyces cerevisiae S288c, UniProt Q03330)	enzyme activity		1 mM, together with: Gcn5-Ada2-Ada3 complex, with DTT		inhibition	22 ± 10%
